Results of several laboratories.
Every numbered part comes from another study and shows a few of its results, in no order. Substitutions count along the parent as printed.

Study 1 — method: protein binding microarray; molecule type: double-stranded DNA, one strand shown; medium: in vitro; tested at: not given; relative to: not given; direction: higher = stronger binding; quantity: E-score
Target: Histone acetyltransferase KAT6A, both winged helices, GST fusion (KAT6A, Homo sapiens, UniProt Q92794, residues 1-181)
Notes: 8-mer, flanks averaged, mean of 2 arrays, mostly near background
Residues (chain): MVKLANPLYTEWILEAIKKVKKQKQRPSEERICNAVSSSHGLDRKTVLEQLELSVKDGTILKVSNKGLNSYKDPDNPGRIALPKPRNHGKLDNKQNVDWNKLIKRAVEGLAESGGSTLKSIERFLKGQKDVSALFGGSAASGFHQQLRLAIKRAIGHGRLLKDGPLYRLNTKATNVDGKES
ACAGTTTG: 0.0418
CGATCCTA: -0.0635
AGGATCAT: -0.189
TCGGACAA: 0.0837
ACCTTTCG: -0.0227
CAGTGAAA: 0.052
AGCTCCAA: -0.231

Study 2 — method: protein-binding microarray; molecule type: double-stranded DNA, one strand shown; medium: in vitro; tested at: 2540 nM top; notes: 60-bp whole probe; with: salmon DNA 0.4 mg/ml; relative to: random background probes; direction: higher = stronger binding; quantity: fitted relative affinity
Target: Interferon regulatory factor 3, full length, phosphomimetic (IRF3, Homo sapiens, UniProt Q14653, residues 1-427, S386D/S396D/S398D/S402D/T404D/S405D)
Chain of UniProt Q14653 (whole entry, unmodified, looked up): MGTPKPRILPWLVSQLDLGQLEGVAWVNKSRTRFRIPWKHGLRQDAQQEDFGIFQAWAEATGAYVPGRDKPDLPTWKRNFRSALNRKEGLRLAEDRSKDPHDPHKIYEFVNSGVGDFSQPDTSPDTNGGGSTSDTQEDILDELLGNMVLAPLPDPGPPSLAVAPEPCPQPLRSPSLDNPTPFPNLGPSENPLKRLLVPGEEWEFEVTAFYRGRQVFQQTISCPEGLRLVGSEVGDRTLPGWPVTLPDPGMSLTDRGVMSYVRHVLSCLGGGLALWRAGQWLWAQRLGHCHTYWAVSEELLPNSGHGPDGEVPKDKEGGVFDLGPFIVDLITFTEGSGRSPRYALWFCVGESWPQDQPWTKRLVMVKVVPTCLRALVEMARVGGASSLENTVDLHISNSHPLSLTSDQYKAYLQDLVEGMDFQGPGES
GCCTAGCACAAGGGTTAAAATTTTGCTTCGTGCTAGGTCTTGATTCGCTTGACGCTGCTG: -0.593 z-score
GCCTAGCACGGTCCAACAAACAGATCCATGTGCTAGGTCTTGATTCGCTTGACGCTGCTG: 0.279 z-score
GCCTAGCACACCCATTGAGATTTCCATTAGTGCTAGGTCTTGATTCGCTTGACGCTGCTG: 0.918 z-score
GCCTAGCACTTAGAACTTGGGTTTCGATTAGTGCTAGTCTTGATTCGCTTGACGCTGCTG: 1.55 z-score

Study 3 — target: CCNB3, cyclin fold, Cln2 fusion (human); method: yeast growth competition, sequencing; medium: yeast; notes: weak parent motif; relative to: not given; direction: higher = stronger binding; quantity: normalised enrichment score
Starting sequence: WEE1 docking peptide (human); HKTFRKLRLFDTP; partner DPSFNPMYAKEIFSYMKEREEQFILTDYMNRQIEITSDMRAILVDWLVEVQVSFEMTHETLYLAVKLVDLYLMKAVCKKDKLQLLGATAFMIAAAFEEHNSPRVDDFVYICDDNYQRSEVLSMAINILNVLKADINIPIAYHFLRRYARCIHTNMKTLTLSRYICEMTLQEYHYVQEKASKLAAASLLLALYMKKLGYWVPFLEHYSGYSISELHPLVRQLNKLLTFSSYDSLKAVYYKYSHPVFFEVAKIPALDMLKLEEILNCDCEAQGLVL
T12W: 0.0465
F4C: 0.144
L7K: -0.455
P13R: -0.105
T12I: 0.648

Further values, each from its own experiment
PhoQ, residues 284 288 289 292 302 303 ASASEQ  fold induction (PhoP, residues 12 14 15 18 19 LWHVM (Escherichia coli, UniProt P23836); Sort-seq, refers to: YFP reporter; E. coli; PhoQ-PhoP variant library, with: 10 µM Mg2+; relative to: high Mg2+ state, higher = stronger signaling): 22.7

Some of these lines once more (study 3):
T12W: 0.0465
